Measurements from different studies.
Protocols differ between the studies behind these lines. ± gives the spread as reported.
Cell line: A549

[Cl-].[Cl-].[Ru+2].c1ccc(-c2ccccn2)nc1.c1ccc(-c2ccccn2)nc1.c1ccc(-c2ccnc3c2ccc2c(-c4ccccc4)ccnc23)cc1  IC50 (resazurin; 72 h, together with: indigo light 450 nm, 29.1 J/cm2): 2.34 µM
N#Cc1ccc(-c2nc(N)[nH]c2C(=O)c2ccccc2)cc1  IC50 (cell growth or viability, SRB; 24 h): 0.314 µM
C[O][Pt-2]([NH3+])([NH3+])([OH])([Cl])[Cl]  IC50 (cell growth or viability, MTT; 96 h): 33 µM
Nc1cccc[n+]1Cc1cccc(C[n+]2ccccc2N)c1  IC50 (cell growth or viability, MTT; 24 h): 487 µM
CCOC(=O)c1ccc2c(c1)n(CC)[c]([Au-][Cl])[n+]2CC  IC50 (cell growth or viability, crystal violet; 72 h): 11.6 µM
c1ccc(-n2nc(-c3ccccn3)n[n+]2-c2ccccc2)cc1  IC50 (cell growth, resazurin): 100 ± 10 µM
N#Cc1cccc(-c2ccc(=O)n(Cc3cccc(-c4ncc(OCC5CCN(CCCCCCCCCC(=O)Nc6cccc7c6C(=O)N(C6CCC(=O)NC6=O)C7=O)CC5)cn4)c3)n2)c1 (centres unmarked)  IC50 (cell growth or viability, CCK-8; 72 h): 21 µM
COc1c(O)cc2oc3cc(O)c(CCC(C)C)c(O)c3c(=O)c2c1CCC(C)C  IC50 (cell growth or viability; 48 h): 14.9 µM
CC(C)(C)N=[C](NCc1cccc(N)c1)[AuH][Cl]  IC50 (cell growth or viability): > 100 µM
CC(C)=CCc1cc(-c2coc3cc(O)c(CC=C(C)C)c(O)c3c2=O)ccc1O  IC50 (cell growth or viability, MTT): 129 µM
NC1CCCCC1N.O=C(CCCc1ccccc1)[O][Pt]1([O]C(=O)CCCc2ccccc2)[O]C(=O)C(=O)[O]1  IC50 (cell growth or viability): 19.6 µM
Cc1cccc(-c2cccc(C)n2)n1.[Cl-].[Cl-].[Ru+2].c1ccc(-c2ccccn2)nc1.c1ccc(-c2ccccn2)nc1  IC50 (cell growth or viability; 72 h, dark): > 100 µM
Cc1ccc(C2=NN(C3=NC(=O)/C(=C/c4ccccc4)S3)C(c3ccc(F)cc3)C2)cc1 (centres unmarked)  IC50 (cell growth or viability, MTT): 66.5 µM
Cc1cc(C#N)cc(C)c1Oc1cc(Nc2ccc(C#N)cn2)nc2cnccc12  IC50 (48 h): > 127 µM
CCOC12C(O)C(OC)C3(O)CC(C1C3OC(=O)c1ccccc1)C13C(OC)CC(O)C4(COC)CN(C)C1C2C(OC)C43 (centres unmarked)  IC50 (cell growth or viability, MTT): 17.6 µM
CCN1CCC2(CC1)C/C(=N\N=C\c1ccc(O)cc1)c1ccccc1O2  IC50 (cell growth or viability, MTT; 48 h): 20.6 µM
Cc1ccc(S(=O)(=O)c2c(-c3ccccc3)c3c(C)c4ccc(C)cc4n3c3ccccc23)cc1  IC50 (cell growth or viability, MTT; 72 h): 13.7 µM
N#Cc1c(F)c(Cl)c2nc(SCC3CCCO3)nc(N)c2c1F (centres unmarked)  IC50 (cell growth or viability, MTT; 96 h): 6 µM
CCOC(=O)C1=C(C)NC(=O)N[C@@H]1/C=C/c1ccc(OC)cc1  IC50 (cell growth or viability, MTT; 24 h): 7.1 µM
CC(C)=CCC1=C([O-])C(=O)c2ccccc2C1=O.CC(C)=CCC1=C([O-])C(=O)c2ccccc2C1=O.Cc1cc2cccnc2c2ncccc12.[Cu+2]  IC50 (cell viability, MTT; 24 h): 2.7 ± 0.1 µM
Cc1cc(C#N)cc(C)c1Oc1cc(Nc2ccc(C#N)cn2)nc2ccncc12  IC50 (48 h): > 127 µM
Cc1cc(C)c([N+]#[C][Pt-]([Cl])([Cl])=[C](Nc2ccc(CN[C](NC(C)(C)C)=[Au][Cl])cc2)Nc2c(C)cc(C)cc2C)c(C)c1  IC50 (cell growth or viability): 0.36 µM
COc1ccc(/N=N/C(=S)N2CCN(C)CC2)cc1  IC50 (cell growth or viability, resazurin; 48 h): > 50 µM
S=c1n(-c2ccccc2)c2c3ccccc3nc3[n+]2[n]1[Ir-3]12([S]3)([c]3ccccc3-c3sc4ccccc4[n+]31)[c]1ccccc1-c1sc3ccccc3[n+]12  IC50 (cell viability, MTT; irradiation 450 nm, 15.5 mW/cm^2, 15 min): 0.014 ± 0.001 µM
COC(=O)[C@@H]1CCCN1C(=O)[C@H](C)N(C)C(=O)OC(C)(C)C  IC50 (cell growth or viability, SRB): 28 µM
C[N+]1(C)CC[NH2+][Pt-2]1([OH])([Cl])([Cl])[O]C(=O)CCC(=O)O  IC50 (cell growth or viability, MTT; 96 h): 145 µM
COc1cccc(-c2ccc(Nc3ccc(CN(C)C)cc3)c(OC)c2F)c1  IC50 (cell growth or viability, ATP luminescence; 72 h): 12.9 µM
O=C(NN=Cc1ccc(O)cc1)Nc1cc2c(Nc3ccc(F)c(Cl)c3)ncnc2cc1OC1CCOC1 (centres unmarked)  IC50 (cell growth or viability, MTT; 72 h): 1.32 µM
CC(=O)O[C@@H]1CC[C@@]2(C)[C@@H](CC[C@]3(C)[C@@H]2C(=O)C=C2[C@@H]4[C@@H](C)[C@H](C)CC[C@]4(C)CC[C@]23C)[C@@]1(C)C(=O)NCCNC(=O)OC(C)(C)C  IC50 (cell growth or viability, MTT; 48 h): > 30 µM
CCN(CC)CCO/N=C1/C=C2CCC3C(CC[C@]4(C)/C(=C/c5ccccn5)CCC34)[C@@]2(C)CC1 (some centres unmarked)  IC50 (cell growth or viability, MTT; 72 h): 26.6 µM
CC1=CC[C@]2(C(=O)O[C@H]3OC[C@@H](O)[C@@H](O)[C@@H]3OS(=O)(=O)O)CC[C@]3(C)C(CCC4[C@@]5(C)CC[C@H](O)C(C)(C)C5CC[C@]43C)C2[C@H]1C (some centres unmarked)  IC50 (cell growth or viability, MTT): 3.5 µM
CC(=O)O[C@@H]1CC[C@@]2(C)[C@@H](CC[C@]3(C)[C@@H]2C(=O)C=C2[C@@H]4[C@@H](C)[C@H](C)CC[C@]4(C)CC[C@]23C)[C@@]1(C)C(=O)NCCNC(=O)C1CC1  IC50 (cell growth or viability, MTT; 48 h): 7.16 µM
COc1c(Cc2ccccc2O)c(O)c2c(c1Cc1ccccc1O)O[C@H](c1ccccc1)CC2=O  IC50 (cell viability, MTT; 72 h): inactive
Cc1ccc(C2C([N+](=O)[O-])C(Cc3ccc(O)cc3)NC23C(=O)c2cccc4cccc3c24)cc1 (centres unmarked)  IC50 (cell growth or viability, MTT; 24 h): 53 µM
COc1ccc(C(=O)c2cc(C(=O)c3cc(Cl)ccc3O)c[n+]3c2NCCCC3)cc1  IC50 (cell growth or viability, MTT; 96 h): 26.4 µM
COc1c(O)cc2oc3c(Br)c(O)c(CCC(C)C)c(O)c3c(=O)c2c1CCC(C)C  IC50 (cell growth or viability; 48 h): 16.2 µM
COc1cc(N(C)CCN(C)C)c(NC(=O)/C=C/c2ccc3ccccc3c2)cc1Nc1nccc(-c2cn(C)c3ccccc23)n1  IC50 (cell growth or viability, MTT; 72 h): 0.115 µM
COc1ccc(/C=C/C2=[N+]3C(=C(COC(C)=O)c4c(C)cc(/C=C/c5ccc(OC)cc5)n4[B-]3(F)F)C(C)=C2)cc1  IC50 (cell growth or viability, resazurin; dark): > 100 µM
O=C(Cc1ccccc1)NC(=S)n1c(-c2ccccc2)nc2ccccc21  IC50 (cell growth or viability, MTT; 48 h): 15.6 µM
C=C(C)[C@@H]1CC[C@]2(C(=O)O)CC[C@]3(C)[C@H](CC[C@@H]4[C@@]5(C)CC[C@H](O[C@@H]6O[C@@H](C)[C@H](O)[C@@H](OC)[C@H]6O)C(C)(C)[C@@H]5CC[C@]43C)[C@@H]12  IC50 (cell growth or viability, fluorescence; 48 h): 10 µM
COc1ccc(/C=C/C2=[N+]3C(=C(CO)c4c(C)cc(/C=C/c5ccc(OC)cc5)n4[B-]3(F)F)C(C)=C2)cc1  IC50 (cell growth or viability, resazurin; dark): > 100 µM
Cc1ccc(C(C)C)cc1.O=C(N=P12CN3CN(CN(C3)C1)C2)c1[c-]cccc1.[Cl-].[Ru+2]  IC50 (cell growth or viability, MTT; 24 h): > 125 µM
CC(=O)[O-].O.[Cu+2].[O-]c1ccc(Br)cc1C=NCCN1CCOCC1  IC50 (cell viability, MTT; 72 h): 21.4 µg/mL
C=C1C(=O)C23CCC4C(C)(C)CCCC4(C)C2C(O)CC1C3 (single isomer, unassigned)  IC50 (cell growth or viability, MTT): 3.8 µM

A few entries again:
Cc1ccc(S(=O)(=O)c2c(-c3ccccc3)c3c(C)c4ccc(C)cc4n3c3ccccc23)cc1  IC50 (cell growth or viability, MTT; 72 h): 13.7 µM
C=C(C)[C@@H]1CC[C@]2(C(=O)O)CC[C@]3(C)[C@H](CC[C@@H]4[C@@]5(C)CC[C@H](O[C@@H]6O[C@@H](C)[C@H](O)[C@@H](OC)[C@H]6O)C(C)(C)[C@@H]5CC[C@]43C)[C@@H]12  IC50 (cell growth or viability, fluorescence; 48 h): 10 µM
